Measurements gathered from unrelated publications.
Numbered parts are unrelated; each lists some results of a single study.

Study 1 — technique: protein binding microarray; molecule type: double-stranded DNA, one strand shown; medium: in vitro; concentration: not given; baseline: not given; reading: higher = stronger binding; quantity: E-score
Target: Histone acetyltransferase KAT6A, winged helix 1, GST fusion (KAT6A, Homo sapiens, UniProt Q92794, residues 1-85)
Setting: 8-mer, flanks averaged, mean of 2 arrays, mostly near background
Target sequence (chain): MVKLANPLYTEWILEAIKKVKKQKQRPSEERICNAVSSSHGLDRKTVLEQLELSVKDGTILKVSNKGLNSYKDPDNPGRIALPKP
AGCTCCCA: -0.194
TAAAGCGA: 0.0382
CTCGACGC: 0.0716
AATACAGA: -0.0664
GAGCGGCC: 0.377
CACACGAA: -0.0754
TCGATACA: -0.162
TCGCGCAA: 0.308
ACACCGAT: 0.0343
GCGTTATA: 0.0575
ACCTCTCG: -0.0284
AGCCACCC: 0.0476
AAGCTCTA: -0.0824
AAACAAAG: -0.158
AATCAGGT: -0.126
ACAATACA: -0.122
GGGTAGCA: 0.177
AAGAATCG: 0.125
ACTCCTAA: -0.166
AAGACGAC: -0.0496
AAGGTCTA: -0.166
CGATTTGC: -0.0269
AAATGTCG: -0.0562
CTGAAAAG: -0.102
ATTATAGC: -0.0906

Study 2 — technique: RNA Bind-n-Seq; molecule type: RNA; medium: in vitro; concentration: not given; baseline: input RNA pool; reading: higher = stronger binding; quantity: bound/input enrichment
Target: RING finger protein unkempt homolog, zinc fingers 1-6, GST-SBP tag (UNK, Homo sapiens, UniProt Q9C0B0, residues 30-357)
Setting: RNA with constant flanks, human-mouse chimeric sites, ends assumed
All sequences stand within: GGGAGUUCUACAGUCCGACGAUC … CAACAGAGGAUUGAGCAUCA
Construct (chain): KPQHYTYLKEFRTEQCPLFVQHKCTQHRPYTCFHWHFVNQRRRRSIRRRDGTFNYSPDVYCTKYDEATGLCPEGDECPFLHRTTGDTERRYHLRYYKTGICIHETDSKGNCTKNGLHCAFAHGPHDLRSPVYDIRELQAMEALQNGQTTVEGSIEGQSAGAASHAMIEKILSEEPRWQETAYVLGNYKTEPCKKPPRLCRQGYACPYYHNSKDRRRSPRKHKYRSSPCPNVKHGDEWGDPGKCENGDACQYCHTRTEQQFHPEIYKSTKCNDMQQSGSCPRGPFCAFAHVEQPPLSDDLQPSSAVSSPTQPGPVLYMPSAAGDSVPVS
AACUUCGUACAUAGAUUUCCCUUUGUAGCUGUUUCAAUUGGCUUCCUUGUAAAUAAAGAGAUGGAGUUUGGAAUUGUGUACAGCUGUGUGGAAGAUAAGAUGUACACCGGCAGGAAAGGG: 0.677 ratio
UACUCAACUUUCUUGCCACAUUUUGAAUUCCAAGACAUUAUUCCUCCAGAUGACUUUCUAACGAGUGAUGAAGAGCAAGAUUCCGUUUUAUUUGGAACUAUGAGAGGACAAGUUGUUGGA: 0.211 ratio
AGAUUCCCCCUCCUGAGGCCUUCUCCAAAGUUGGAGUCUCUUACAGAUGCCUCAUCCCCUGUUAGUAUUUUAGUUUGGACCACCCAGCCUUGGACAAUUCCCGCCAACCAGGCAAUUUGC: 3.73 ratio
UACUACUAUGAUGGUGAUAUUGGCAAUUAUUAUUAUGGCCAGGGUCAUCCCAUGAAGCCUCAUAGAAUCCGGAUGACCCAUAACUUGCUGCUAAAUUAUGGUUUAUACCGAAAAAUGGAA: 0.224 ratio
GUGACUGGUGUUAAGAUUUCCCCUCAGCAAAGAAGUGCAGUAGUCACAAUAAUCCCUUCUGUGGUGAGUGCCAGUCAGAUUGUGGAGCUGGUCCCAGACCUCAGUUUAGAUACUGGGACU: 0.479 ratio
ACUCAGAGAUCCACCUCAAUUGAAGUGGGGAGUAAAGGUGUGGCCACCACACCUAACUUGAUGGAUAUAUAUUUUUUCUCUUUUAUGUCUUCCUGUUCGUCCAGGGAAGAAAGAUUUGUU: 0.358 ratio
CCUCUGCCCCGCUCUGCAGCCUGGGGACACUGGGCUGGGACCAGAAUCCAGCUUUCUUUUAAAACUCUCAGUGUAACUGUAUCCCGUUUUUUUCUUUUUUUUUUAAAUAGUGUAUUUUUU: 20.3 ratio
GACUUUGGGACUGGUCCUCGCAACGCAGCCUUCUAUAGCCCUCAUGGACAUAUAUUAGUGCUGGCUGGAUUUGGAAAUCUGAGGGGACAAAUGGAAGUGUGGGAUGUUAAAAACUACAAG: 0.418 ratio
UCAUUUUUCUCUUUUCUGAUCGUCAGGUAGGAAAAGCAGAUUAGACUGGUUGUAAGAAAAACAGAAGCCAUGUUUCGAAGACCUGUGUUACAGGUAUUUCGUCAGUUUGUAAGACAUGAG: 0.549 ratio
CCAAUUGUGGAGCAGUACUUGAAGACAAAGAAAAAUUCUAAUAAUUUAAUCAUCAAGUACAUUAGCUGCCGCCUGCUGACACUCAUCGUUAUACUGUUAGCGUGUAUCUACUUGAGCUAU: 0.315 ratio
AACAGAUUGUCUUUAAGGUCAACGUAGGAGAAUGCUGGGGUGAUCAUUGUUGCCCAUGUGCCUUCUGUAAUAGAUGGAAUGCUGUUCCAUGUUACAUCUUUCCUUCACUCCAGAAUUGUU: 0.0984 ratio

Study 3 — technique: RNA Bind-n-Seq; molecule type: RNA; medium: in vitro; concentration: 200 nM; setting: whole 134-nt RNA, ends assumed; with: 150 mM LiCl; baseline: input library; reading: higher = stronger binding; quantity: log2 enrichment; each molecule: 7-deaza-guanosine replaces G
Target: Ras GTPase-activating protein-binding protein 1, full length (G3BP1, Homo sapiens, UniProt Q13283)
Sequence of UniProt Q13283 (whole entry, looked up): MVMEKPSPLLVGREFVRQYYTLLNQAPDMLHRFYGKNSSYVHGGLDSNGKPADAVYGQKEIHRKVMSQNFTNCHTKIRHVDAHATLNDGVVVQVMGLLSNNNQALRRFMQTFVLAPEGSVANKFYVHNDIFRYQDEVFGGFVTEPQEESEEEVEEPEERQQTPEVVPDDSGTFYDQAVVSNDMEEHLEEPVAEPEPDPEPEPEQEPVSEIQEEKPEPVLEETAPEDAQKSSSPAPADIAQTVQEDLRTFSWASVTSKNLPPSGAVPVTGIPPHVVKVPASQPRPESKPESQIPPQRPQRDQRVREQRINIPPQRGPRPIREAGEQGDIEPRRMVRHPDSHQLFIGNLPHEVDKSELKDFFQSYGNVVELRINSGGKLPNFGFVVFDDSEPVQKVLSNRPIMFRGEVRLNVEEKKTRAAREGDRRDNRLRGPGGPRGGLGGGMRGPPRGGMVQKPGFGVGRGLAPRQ
All sequences stand within: GGGAGUUCUACAGUCCGACGAUC … UGGAAUUCUCGGGUGUCAAGG
UGGAUUAGAGAGAAAUUGAAUUUUUUCUUACUUGAACUCCUACUAAAAAGUGAACUAAAUAUUUUAUUGUAGUAAUGGCAUAGAGGAGCC: -2.81
AAGUCCUGUGCUACACAUCGUAUGUACCGAAUCGGGGCCCGGGGCCCGGGCCCGGGAAAGUAUUAUGUUACGCCGUUCGGAUCUGCACUU: -1.06
CAAGUCCUGUGCUACACAUCGUAUGUACCGAAUCGGUGGUUUUUGGAAAAAAAGGAAAGUAUUAUGUUACGCCGUUCGGAUCUGCACUUC: -0.398
UGUGCUACACAUCGUAUGUACCGAAUCGGGGCCCCCCCGGGGCCCCCCCGGCCCCCCCGGGGAAAGUAUUAUGUUACGCCGUUCGGAUCU: -0.308
UUCCGCUGUCUUUUCUGUCUACAGUUUGCGAUCCCCGCGUCCAGGAUGGAGCAGCUGAACGAACUGGAGCUGCUGAUGGAGAAGAGUUUU: -2.58
CUCAAGUCCUGUGCUACACAUCGUAUGUACCGAAUCGGUUUGGUGGUUUUUGGAAAGUAUUAUGUUACGCCGUUCGGAUCUGCACUUCCA: 0.256
GCAGGAAGUAAAAACAAAUGGAAAUGCUUCGGACAGUGGCAGGGGUGGGGGUUGCUAAGGAAAGGGUGGGAUGGGAGUGGGUAAAGAGUU: -0.0336
GUCCUGUGCUACACAUCGUAUGUACCGAAUCGGGGUUUUUGGGGUUUGGGGUUUGGGGAAAGUAUUAUGUUACGCCGUUCGGAUCUGCAC: -0.385
CCUCAAGUCCUGUGCUACACAUCGUAUGUACCGAAUCGGGUGGGUGGGGUGGAAAGUAUUAUGUUACGCCGUUCGGAUCUGCACUUCCAG: -1.09
GUCCUGUGCUACACAUCGUAUGUACCGAAUCGGGAAAAAGGGAAAGGGAAAAAAAGGGAAAGUAUUAUGUUACGCCGUUCGGAUCUGCAC: 0.158
AAGUCCUGUGCUACACAUCGUAUGUACCGAAUCGGGUUUUGGGUUUUGGGUUUUGGAAAGUAUUAUGUUACGCCGUUCGGAUCUGCACUU: -0.442

Study 4 — technique: aptamer microarray, sandwich; molecule type: DNA with 2'F-ANA; medium: in vitro; concentration: 200 nM; with: Cy3 exosite-II aptamer, 400 nM; reading: higher = stronger binding; quantity: mean fluorescence intensity; strand: GGTTGGTGTGGTTGG
Target: Prothrombin, mature alpha-thrombin (F2, Homo sapiens, UniProt P00734)
Setting: whole 15-mer aptamer, many near background
2'F-ANA at 1 5 6 7 10: 44 a.u.
2'F-ANA at 4 10 11 12: 122 a.u.
2'F-ANA at 1 3 4 6 8 11 12 13: 280 a.u.
2'F-ANA at 1 2 7 9 11 12 13: 205 a.u.
2'F-ANA at 1 4 6 7 10 11 13 14: 47.6 a.u.
2'F-ANA at 1 3 5 8 10 15: 48.4 a.u.
2'F-ANA at 1 2 3 5 11 12 13 14: 70.3 a.u.
2'F-ANA at 2 6 7 8 9 10 12 13: 137 a.u.
2'F-ANA at 1 3 5 6 9 13: 63.5 a.u.
2'F-ANA at 2 3 4 5 6 7 8 10 12 13 15: 59.1 a.u.
2'F-ANA at 3 5 6 8 9 13 14: 57.9 a.u.
2'F-ANA at 1 2 6 8 10: 61.1 a.u.
2'F-ANA at 1 4 6 7 11 13 14: 77.3 a.u.
2'F-ANA at 1 5 6 9 10: 60.9 a.u.
2'F-ANA at 2 7 9 10: 136 a.u.
2'F-ANA at 1 5 6 7 8 9 10 11 12 15: 49.8 a.u.
2'F-ANA at 2 3 4 6 8 11 12 13: 544 a.u.
2'F-ANA at 3 4 5 9 11 12: 166 a.u.
2'F-ANA at 2 3 4 5 9 13 14 15: 109 a.u.
2'F-ANA at 2 4 5 6 7 8 10 12 13 15: 54.4 a.u.
2'F-ANA at 1 6 7 8 10 12 13: 63.3 a.u.
2'F-ANA at 2 5 6 8 10 12 13: 47.5 a.u.
2'F-ANA at 3 5 6 10 11 12 13 15: 64.5 a.u.
2'F-ANA at 1 2 3 4 7 10 12 13 15: 87.3 a.u.
2'F-ANA at 5 6 7 11 12 14: 55.1 a.u.

Study 5 — technique: RNAcompete; molecule type: RNA; medium: in vitro; concentration: 20 nM; setting: 7-mer, probes averaged, single round; baseline: mean of 7-mers; reading: higher = stronger binding; quantity: 7-mer Z-score
Target: PABPC1L2, full length, GST fusion (mouse, UniProt A0ABA7IW68)
Target sequence (chain): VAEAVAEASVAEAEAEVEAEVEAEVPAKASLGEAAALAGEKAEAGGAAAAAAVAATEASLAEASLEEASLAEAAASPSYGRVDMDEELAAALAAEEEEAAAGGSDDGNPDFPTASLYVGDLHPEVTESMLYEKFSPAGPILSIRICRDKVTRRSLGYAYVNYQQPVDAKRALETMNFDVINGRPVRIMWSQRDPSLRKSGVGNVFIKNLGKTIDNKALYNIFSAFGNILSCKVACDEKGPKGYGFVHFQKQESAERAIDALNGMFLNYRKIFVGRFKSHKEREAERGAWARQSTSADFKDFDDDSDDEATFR
AUCCUUG: -0.197
AUCAUCA: -0.0736
UAUAAGA: 0.0932
AUUCACA: -0.0337
UUCAACA: -0.0428
CCGCGAA: 0.00254
AUGCGGU: 0.000733
UGCCCGU: -0.302
AUUCUUG: -0.376
UGCUUUG: -0.338
CCGGGUC: -0.0464
UUCUUUG: -0.286
AUCUCAU: -0.215
GGAAAUG: 0.0388
CCUUCGA: -0.318
UAGUCUC: -0.347
AGCCCGA: -0.00652
GAGCCGU: -0.432
CGUAAAC: 0.0515

Repeated from above (study 4):
2'F-ANA at 1 4 6 7 11 13 14: 77.3 a.u.
2'F-ANA at 3 5 6 10 11 12 13 15: 64.5 a.u.
2'F-ANA at 2 4 5 6 7 8 10 12 13 15: 54.4 a.u.
2'F-ANA at 4 10 11 12: 122 a.u.
2'F-ANA at 2 5 6 8 10 12 13: 47.5 a.u.
2'F-ANA at 1 3 4 6 8 11 12 13: 280 a.u.
